Measured values of several laboratories.
Every numbered part comes from another study and shows a few of its results, in no order. Positions count from the first letter of the parent shown.

Block 1
Target: CCNB3, cyclin fold, Cln2 fusion (human)
Technique: yeast growth competition, sequencing
Sample: yeast
Notes: weak parent motif
Relative to: not given
Direction: higher = stronger binding
Starting sequence: RB1 docking peptide (human); PKPLKKLRFDIEG
For `PKPLKKLGFDIEG [R8G]`, “normalised enrichment score” read 0.0966.
For `PKPLKKLRFDIGG [E12G]`, “normalised enrichment score” read 0.501.
`PKPLKKLRFGIEG [D10G]` — result for “normalised enrichment score”: 0.97.

Block 2
Target: Interferon regulatory factor 7, full length, phosphomimetic (IRF7, Homo sapiens, UniProt Q92985, residues 1-503, S471D/S472D/S475D/S476D/S477D/S483D/S484D/S487D)
Chain of UniProt Q92985 (whole entry, unmodified, looked up): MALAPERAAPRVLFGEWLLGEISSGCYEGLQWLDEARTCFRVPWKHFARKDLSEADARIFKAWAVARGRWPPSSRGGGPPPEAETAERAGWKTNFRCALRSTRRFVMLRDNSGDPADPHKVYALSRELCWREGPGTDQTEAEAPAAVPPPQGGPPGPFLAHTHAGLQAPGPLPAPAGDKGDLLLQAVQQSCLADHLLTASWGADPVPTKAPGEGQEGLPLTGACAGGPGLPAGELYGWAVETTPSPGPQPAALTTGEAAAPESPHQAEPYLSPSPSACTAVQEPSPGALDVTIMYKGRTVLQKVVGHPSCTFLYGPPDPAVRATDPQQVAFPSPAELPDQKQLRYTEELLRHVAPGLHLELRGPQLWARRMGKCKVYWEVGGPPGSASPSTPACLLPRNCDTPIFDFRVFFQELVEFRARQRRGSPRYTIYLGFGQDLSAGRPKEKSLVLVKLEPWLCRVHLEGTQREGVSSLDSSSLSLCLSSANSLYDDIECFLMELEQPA
Technique: protein-binding microarray
Molecule type: double-stranded DNA, one strand shown
Sample: in vitro
Concentration: 2200 nM top
Notes: 60-bp whole probe
Together with: salmon DNA 0.4 mg/ml
Relative to: random background probes
Direction: higher = stronger binding
Under “fitted relative affinity”, `GCCTAGCACATGGCTTTGCCTTTTGCTTTGTGCTAGGTCTTGATTCGCTTGACGCTGCTG` is recorded as 0.932 z-score.
Under “fitted relative affinity”, `GCCTAGCACTCATATTTAAGGCTAGGACTGTGCTAGGTCTTGATTCGCTTGACGCTGCTG` is recorded as 0.0147 z-score.
`GCCTAGCACGACGAACTGGGGTTCCGAGACGTGCTAGTCTTGATTCGCTTGACGCTGCTG`: “fitted relative affinity” -0.216 z-score.
`GCCTAGCACGACGGTCTCCTAATCCTGACGTGCTAGGTCTTGATTCGCTTGACGCTGCTG` — result for “fitted relative affinity”: 0.865 z-score.

Block 3
Target: Sal-like protein 4, full length isoform B (SALL4, Homo sapiens, UniProt Q9UJQ4-2, residues 1-616)
Technique: universal PBM
Molecule type: double-stranded DNA, one strand shown
Sample: in vitro
Concentration: not given
Notes: 8-mer, flanks averaged, mean of replicates
Direction: higher = stronger binding
Target sequence (chain): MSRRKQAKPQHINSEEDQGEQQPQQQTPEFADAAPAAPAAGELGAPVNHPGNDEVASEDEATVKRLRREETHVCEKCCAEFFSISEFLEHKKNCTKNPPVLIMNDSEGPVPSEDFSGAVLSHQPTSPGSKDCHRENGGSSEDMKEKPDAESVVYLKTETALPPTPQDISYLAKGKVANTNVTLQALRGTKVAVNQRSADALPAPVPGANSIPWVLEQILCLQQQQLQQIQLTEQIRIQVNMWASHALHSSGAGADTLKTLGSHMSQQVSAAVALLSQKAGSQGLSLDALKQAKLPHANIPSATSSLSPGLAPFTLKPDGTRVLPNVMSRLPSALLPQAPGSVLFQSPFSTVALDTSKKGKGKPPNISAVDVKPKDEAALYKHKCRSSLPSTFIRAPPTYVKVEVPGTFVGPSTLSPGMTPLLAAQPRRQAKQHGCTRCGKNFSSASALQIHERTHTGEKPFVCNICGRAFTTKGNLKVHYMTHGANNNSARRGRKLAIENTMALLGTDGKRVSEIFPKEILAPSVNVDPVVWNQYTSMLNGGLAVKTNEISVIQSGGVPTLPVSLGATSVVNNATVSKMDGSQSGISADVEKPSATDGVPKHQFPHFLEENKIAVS
For `AATCATGA`, the E-score was 0.221.
The E-score of `ACATCGTA` is reported as 0.0316.
`AGGTCCCC` gave an E-score of -0.391.
With `AACTTAGT` the E-score was 0.0857.
`ACTATGCT` has an E-score of 0.222.

Other studies, line by line
The fold induction of `PhoQ, residues 284 288 289 292 302 303 QWQEDG` is reported as 2.62 (PhoP, residues 12 14 15 18 19 NNFVT (Escherichia coli, UniProt P23836); Sort-seq, measured: YFP reporter; E. coli; PhoQ-PhoP variant library, together with: 10 µM Mg2+; relative to: high Mg2+ state, higher = stronger signaling).

Excerpt of the above (block 2):
`GCCTAGCACGACGGTCTCCTAATCCTGACGTGCTAGGTCTTGATTCGCTTGACGCTGCTG` — result for “fitted relative affinity”: 0.865 z-score.
